# Results from different studies.
# Compare with care: the assays were run in different laboratories. ± marks the error that the study gave.
# GRPR: Gastrin-releasing peptide receptor (GRPR, Homo sapiens, UniProt P30550)
# UniProt P30550, sequence (whole entry, looked up): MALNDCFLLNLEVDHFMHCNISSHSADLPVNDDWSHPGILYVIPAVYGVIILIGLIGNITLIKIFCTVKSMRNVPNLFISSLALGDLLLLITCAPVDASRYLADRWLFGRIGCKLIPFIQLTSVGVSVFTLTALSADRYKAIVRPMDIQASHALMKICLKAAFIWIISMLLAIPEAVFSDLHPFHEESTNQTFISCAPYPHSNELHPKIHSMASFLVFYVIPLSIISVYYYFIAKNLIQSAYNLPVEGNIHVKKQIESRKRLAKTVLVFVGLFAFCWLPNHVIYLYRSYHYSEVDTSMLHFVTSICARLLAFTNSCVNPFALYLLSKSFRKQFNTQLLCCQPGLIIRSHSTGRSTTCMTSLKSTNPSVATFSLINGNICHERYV
# UniProt Q7Z2W7, sequence (whole entry, looked up): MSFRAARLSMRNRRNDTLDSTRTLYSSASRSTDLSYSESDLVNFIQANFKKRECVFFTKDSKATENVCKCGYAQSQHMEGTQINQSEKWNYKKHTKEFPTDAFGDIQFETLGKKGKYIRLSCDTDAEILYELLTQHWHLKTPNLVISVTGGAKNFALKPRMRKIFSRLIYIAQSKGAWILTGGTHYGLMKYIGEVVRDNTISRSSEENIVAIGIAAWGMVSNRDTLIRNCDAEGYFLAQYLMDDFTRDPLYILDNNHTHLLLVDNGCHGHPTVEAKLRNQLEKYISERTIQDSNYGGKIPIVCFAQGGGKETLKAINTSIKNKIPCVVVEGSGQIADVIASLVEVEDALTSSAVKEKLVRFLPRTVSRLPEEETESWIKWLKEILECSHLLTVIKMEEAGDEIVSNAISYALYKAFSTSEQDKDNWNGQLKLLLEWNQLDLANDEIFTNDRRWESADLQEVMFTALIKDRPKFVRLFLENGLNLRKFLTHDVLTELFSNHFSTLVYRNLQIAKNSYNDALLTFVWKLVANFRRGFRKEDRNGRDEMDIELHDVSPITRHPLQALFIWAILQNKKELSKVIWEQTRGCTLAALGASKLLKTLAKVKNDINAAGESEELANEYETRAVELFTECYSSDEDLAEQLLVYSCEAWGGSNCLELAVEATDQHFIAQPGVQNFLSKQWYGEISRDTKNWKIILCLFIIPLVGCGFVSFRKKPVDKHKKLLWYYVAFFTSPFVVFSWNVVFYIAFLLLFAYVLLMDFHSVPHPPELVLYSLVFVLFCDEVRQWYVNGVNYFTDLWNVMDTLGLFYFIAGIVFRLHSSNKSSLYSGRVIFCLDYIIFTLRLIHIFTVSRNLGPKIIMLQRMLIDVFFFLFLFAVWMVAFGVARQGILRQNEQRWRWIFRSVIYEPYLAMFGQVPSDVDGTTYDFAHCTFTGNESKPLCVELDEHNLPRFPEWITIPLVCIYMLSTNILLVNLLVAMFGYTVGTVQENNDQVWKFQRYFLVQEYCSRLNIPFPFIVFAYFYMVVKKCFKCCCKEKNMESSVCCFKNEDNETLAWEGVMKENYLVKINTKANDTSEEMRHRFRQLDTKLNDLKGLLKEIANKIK
# UniProt P00516, sequence (whole entry, looked up): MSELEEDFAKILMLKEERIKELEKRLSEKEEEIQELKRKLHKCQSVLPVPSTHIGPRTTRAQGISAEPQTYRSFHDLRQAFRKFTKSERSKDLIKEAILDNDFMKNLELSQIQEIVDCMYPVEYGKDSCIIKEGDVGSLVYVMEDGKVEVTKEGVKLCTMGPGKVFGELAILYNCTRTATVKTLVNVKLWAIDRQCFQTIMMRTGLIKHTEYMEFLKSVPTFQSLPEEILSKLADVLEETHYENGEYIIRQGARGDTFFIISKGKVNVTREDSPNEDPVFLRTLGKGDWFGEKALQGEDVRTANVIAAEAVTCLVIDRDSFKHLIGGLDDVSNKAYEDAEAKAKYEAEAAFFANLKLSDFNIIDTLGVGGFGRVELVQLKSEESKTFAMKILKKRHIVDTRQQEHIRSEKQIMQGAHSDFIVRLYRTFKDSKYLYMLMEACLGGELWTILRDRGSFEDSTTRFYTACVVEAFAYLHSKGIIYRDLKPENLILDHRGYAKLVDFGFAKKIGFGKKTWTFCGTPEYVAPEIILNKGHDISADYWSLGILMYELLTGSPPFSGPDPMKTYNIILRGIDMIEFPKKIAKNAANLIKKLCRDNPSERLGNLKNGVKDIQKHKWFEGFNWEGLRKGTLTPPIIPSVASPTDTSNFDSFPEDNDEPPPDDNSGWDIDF
# UniProt P00441, sequence (whole entry, looked up): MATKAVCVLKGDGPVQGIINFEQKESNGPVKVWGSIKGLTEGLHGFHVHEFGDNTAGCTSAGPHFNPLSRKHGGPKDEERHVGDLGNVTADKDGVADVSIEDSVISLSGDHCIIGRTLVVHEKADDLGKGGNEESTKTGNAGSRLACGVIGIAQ
# UniProt P23975, sequence (whole entry, looked up): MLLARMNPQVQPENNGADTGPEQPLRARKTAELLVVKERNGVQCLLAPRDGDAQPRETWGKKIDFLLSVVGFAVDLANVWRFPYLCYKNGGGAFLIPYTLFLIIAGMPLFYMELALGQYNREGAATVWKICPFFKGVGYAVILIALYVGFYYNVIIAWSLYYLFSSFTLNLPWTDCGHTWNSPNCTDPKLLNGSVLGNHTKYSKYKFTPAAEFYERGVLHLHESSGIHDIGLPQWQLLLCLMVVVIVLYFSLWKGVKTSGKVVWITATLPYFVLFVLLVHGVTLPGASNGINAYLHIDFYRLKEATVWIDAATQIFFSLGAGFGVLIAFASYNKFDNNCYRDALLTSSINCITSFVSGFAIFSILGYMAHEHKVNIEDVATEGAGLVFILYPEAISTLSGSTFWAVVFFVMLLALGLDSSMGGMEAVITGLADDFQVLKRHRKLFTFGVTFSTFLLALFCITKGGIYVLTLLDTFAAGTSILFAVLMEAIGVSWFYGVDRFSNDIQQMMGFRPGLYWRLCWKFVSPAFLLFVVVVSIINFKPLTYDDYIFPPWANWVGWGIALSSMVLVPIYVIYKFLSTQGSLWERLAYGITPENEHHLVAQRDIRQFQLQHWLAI
# UniProt Q8WTS6, sequence (whole entry, looked up): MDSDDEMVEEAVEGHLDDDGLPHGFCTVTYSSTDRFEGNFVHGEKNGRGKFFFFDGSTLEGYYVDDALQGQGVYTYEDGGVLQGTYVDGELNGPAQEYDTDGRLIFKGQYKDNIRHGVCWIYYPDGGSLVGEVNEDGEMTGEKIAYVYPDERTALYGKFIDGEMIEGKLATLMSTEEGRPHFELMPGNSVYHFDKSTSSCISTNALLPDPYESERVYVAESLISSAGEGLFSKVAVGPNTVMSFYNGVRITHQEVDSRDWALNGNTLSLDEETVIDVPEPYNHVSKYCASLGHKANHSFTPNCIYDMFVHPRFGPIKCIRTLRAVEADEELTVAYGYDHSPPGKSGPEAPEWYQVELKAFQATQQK
# UniProt Q09470, sequence (whole entry, looked up): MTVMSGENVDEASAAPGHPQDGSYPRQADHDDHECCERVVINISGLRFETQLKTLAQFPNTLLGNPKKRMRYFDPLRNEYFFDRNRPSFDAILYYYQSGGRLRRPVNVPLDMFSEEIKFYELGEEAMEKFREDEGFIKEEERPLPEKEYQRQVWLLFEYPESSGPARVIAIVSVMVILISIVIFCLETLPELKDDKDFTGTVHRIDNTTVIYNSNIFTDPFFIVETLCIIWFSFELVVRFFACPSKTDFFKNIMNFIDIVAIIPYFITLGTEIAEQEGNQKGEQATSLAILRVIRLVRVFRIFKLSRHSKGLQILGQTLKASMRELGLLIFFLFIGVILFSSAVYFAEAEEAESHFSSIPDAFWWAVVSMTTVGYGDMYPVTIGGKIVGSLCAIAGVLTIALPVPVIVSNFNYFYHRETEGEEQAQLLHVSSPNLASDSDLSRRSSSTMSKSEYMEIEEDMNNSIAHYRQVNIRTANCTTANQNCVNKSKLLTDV
# UniProt P07363, sequence (whole entry, looked up): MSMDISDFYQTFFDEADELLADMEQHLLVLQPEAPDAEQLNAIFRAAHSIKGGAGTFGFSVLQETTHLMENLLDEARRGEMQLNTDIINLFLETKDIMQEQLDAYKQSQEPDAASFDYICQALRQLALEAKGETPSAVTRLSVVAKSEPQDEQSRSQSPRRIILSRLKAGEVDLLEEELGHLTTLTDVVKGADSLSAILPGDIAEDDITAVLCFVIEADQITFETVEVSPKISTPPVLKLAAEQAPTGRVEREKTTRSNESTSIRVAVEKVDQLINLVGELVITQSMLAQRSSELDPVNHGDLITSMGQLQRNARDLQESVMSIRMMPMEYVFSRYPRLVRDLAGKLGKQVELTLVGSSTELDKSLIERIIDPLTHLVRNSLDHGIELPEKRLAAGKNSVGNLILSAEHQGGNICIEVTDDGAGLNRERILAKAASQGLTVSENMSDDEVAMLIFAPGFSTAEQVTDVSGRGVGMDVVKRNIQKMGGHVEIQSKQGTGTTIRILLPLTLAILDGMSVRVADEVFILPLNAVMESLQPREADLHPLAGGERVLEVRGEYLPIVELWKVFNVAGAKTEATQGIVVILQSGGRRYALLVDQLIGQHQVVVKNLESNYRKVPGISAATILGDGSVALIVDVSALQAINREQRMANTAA
# UniProt P09936, sequence (whole entry, looked up): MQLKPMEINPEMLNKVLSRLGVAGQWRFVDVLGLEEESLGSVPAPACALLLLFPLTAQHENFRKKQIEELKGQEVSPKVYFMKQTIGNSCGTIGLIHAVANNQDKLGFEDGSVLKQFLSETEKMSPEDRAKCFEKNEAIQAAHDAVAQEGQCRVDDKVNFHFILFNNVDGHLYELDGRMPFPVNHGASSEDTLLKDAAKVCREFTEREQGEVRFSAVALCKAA
Compound,target or system,test,system,setting,quantity,value
COc1cc(CNC(=O)C[C@H](C)CCC=C(C)C)ccc1OCc1cn(-c2ccc(Br)cc2)nn1,MDA-MB-468 breast cancer cells,SRB,,"10 µM, 48 h",growth percent,46.7%
N=C(NCCCCC(N)C(N)=O)NCCCSCC1OC(n2cnc3c(N)ncnc32)C(O)C1O (stereo not shown),"Histone-lysine N-methyltransferase SETD7 (SETD7, Homo sapiens, UniProt Q8WTS6)","enzyme activity, inhibitor, fluorescence",,,IC50,> 100000 nM
NCCCC[C@@H](NC(=O)CCCCCNC(=O)c1ccc(-c2ccnc(N)n2)s1)C(=O)NCCCCCC(=O)N[C@H](CCCN=C(N)N)C(=O)N[C@H](CCCN=C(N)N)C(=O)N[C@H](CCCN=C(N)N)C(=O)N[C@H](CCCN=C(N)N)C(=O)N[C@H](CCCN=C(N)N)C(=O)N[C@H](CCCN=C(N)N)C(N)=O,"cGMP-dependent protein kinase 1, isoform alpha (PRKG1, Bos taurus, UniProt P00516)","inhibitor, fluorescence intensity displacement",,together with: ARC-1059 probe and cGMP 40 µM,IC50,17 nM
O=C(NCCCN1CCC(Cc2ccccc2)CC1)c1cccc2ccccc12,"Sodium-dependent noradrenaline transporter (SLC6A2, Homo sapiens, UniProt P23975)","transporter uptake, inhibitor, radiometric",,,IC50,870 to 7430 nM
CCOC(=O)C(CS)N1C(=O)c2ccc(N(C)C)cc2C1=O (stereo not shown),"Metallo-beta-lactamase VIM-2 (VIM-2, Escherichia coli, UniProt Q5U7L7)","enzyme activity, inhibitor",,pH 7,IC50,130 nM
CNC(=S)N/N=C/c1ccccn1,"Superoxide dismutase [Cu-Zn] (SOD1, Homo sapiens, UniProt P00441)","enzyme activity, inhibitor",HeLa,24 h,IC50,2120 nM
N#CN1CC[C@H](C(=O)Nc2nc3c(s2)CN(C(=O)CN=[N+]=[N-])CC3)C1,"Ubiquitin carboxyl-terminal hydrolase isozyme L1 (UCHL1, Homo sapiens, UniProt P09936)","enzyme activity, inhibitor, fluorescence",,with preincubation,IC50,320 nM
CCNC(=O)[C@H](CC(C)C)NC(=O)[C@H](Cc1c[nH]cn1)NC(=O)CNC(=O)[C@@H](NC(=O)[C@H](C)NC(=O)[C@H](Cc1c[nH]c2ccccc12)NC(=O)[C@H](CCC(N)=O)NC(=O)[C@@H](Cc1ccccc1)NC(=O)[C@H](CC(N)=O)NC(=O)[C@H](CC(=O)O)NC(=O)[C@H](CCCNC(=N)N)NC(=O)CNC(=O)CNC(=O)CN)C(C)C,GRPR,"ligand displacement, radioligand",,,IC50,65.3 nM
COc1ccc2c(c1)c1c(n2CO)CN2CCc3cc(OCc4cccc(F)c4)c(OC)cc3C2C1 (stereo not shown),"D(1A) dopamine receptor (DRD1, Homo sapiens, UniProt P21728)","calcium signal, antagonist",,,IC50,> 100000 nM
CC1CC(Nc2ncnc3nc[nH]c23)CC(C)(C)C1 (stereo not shown),"Chemotaxis protein CheA (Escherichia coli, UniProt P07363)","enzyme activity, inhibitor, radiometric",,,IC50,413000 nM
O=C(c1cccc(S(=O)(=O)N2CCc3ccccc3C2)c1)N1CCC(OCc2ccccc2)CC1,"KCNA2/KCNA1 (Homo sapiens, UniProt P16389+Q09470)","potassium current, inhibitor, automated patch clamp","CHO-K1, concatemer expressing",,IC50,580 nM
CC(C)C[C@@H](CN[C@H](Cc1ccccc1)C(N)=O)NC(=O)[C@H](Cc1c[nH]cn1)NC(=O)CNC(=O)[C@@H](NC(=O)[C@H](C)NC(=O)[C@H](Cc1c[nH]c2ccccc12)NC(=O)[C@H](CCC(N)=O)NC(=O)[C@H](N)Cc1ccccc1)C(C)C,GRPR,"inositol phosphate generation, antagonist",Balb 3T3 expressing GRPR,together with: GRP 1 nM,IC50,151 ± 13 nM
Cc1cc2c(NC(=O)N[C@@H]3CC(C)(C)Oc4cc(C(F)(F)F)ccc43)c(C)ccc2cn1,"Transient receptor potential cation channel subfamily M member 8 (TRPM8, Homo sapiens, UniProt Q7Z2W7)",cell-based,,,IC50,> 100000 nM
CCC1(CC)C(=O)N(c2cccc(CN3CCN(c4cc(C)nc5ccc(Br)cc45)CC3)c2)C1=O,"Dipeptidyl peptidase 2 (Homo sapiens, UniProt Q9UHL4)","cell-free assay, inhibitor",,,IC50,> 10000 nM
CCCCCCCCCCCCCC(=S)NCCCC[C@H](NC(=O)[C@@H]1CCCN1)C(=O)N[C@@H](CCCCN)C(=O)N[C@H](C(=O)NCC(=O)O)[C@@H](C)O,"NAD-dependent protein deacetylase sirtuin-1 (SIRT1, Homo sapiens, UniProt Q96EB6)",,,,IC50,10700 nM
COc1cc(CNC(=O)C[C@H](C)CCC=C(C)C)ccc1OCc1cn(-c2ccccc2F)nn1,Malme-3M melanoma cells,SRB,,"10 µM, 48 h",growth percent,78.3%
